Measured values pooled from the literature.
Compare with care: the assays were run in different laboratories. “And” joins repeats or separate records; there may be more than shown. Numbers after ± are the reported error.

Under “host cell number”, `NCCCN` is recorded as 1.01 ± 0.046 (HCT-8; Hoechst nuclei count; 1 mM, 24 h; reference: PBS).
For `Cc1ccc(C(=O)c2cc(O)c(O)c([N+](=O)[O-])c2)cc1`, the CC50 was ≥ 100 µM (HCT-8; luminescent ATP cell viability; 24 h).
The TC50 of `Cc1ccc(Nc2cnnc3ccc(-c4ccc(N5CCCN(C)CC5)cc4)cc23)cn1` is reported as 7.8 µM (C2C12 mouse myoblasts; cytotoxicity).
`NC(N)=O` — result for “host cell number”: 0.953 ± 0.054 (HCT-8; Hoechst nuclei count; 1 mM, 24 h; reference: PBS).
`N=C(CCl)NCCC[C@H](NC(=O)c1ccc2ccc(O)cc2c1)C(=O)NCc1ccccc1` gave a therapeutic index of > 400 fold (A549 and MDA-MB-231; MTT; 48 h, 10% FBS; reference: CC50 over PAD4 IC50).
Under “host cell number”, `CC(CN)C(=O)O` (racemic) is recorded as 1.02 ± 0.016 (HCT-8; Hoechst nuclei count; 1 mM, 24 h; reference: PBS).
`CN1CCN(c2ccc(-c3ccc4nncc(Nc5ccc(OC(F)(F)F)cc5)c4c3)cc2)CC1` has a TC50 of 0.85 µM (C2C12 mouse myoblasts; cytotoxicity).
`Nc1cccc2c1C(=O)N(C1CCCN(C(=O)C(F)(F)F)C1)C2=O` (stereo not shown) has a viability of 105 ± 1% (RAW264.7; 10 µM, with: LPS 10 ng/mL).
With `CN1CCN(c2ncc(-c3ccc4nncc(Nc5ncc(Cl)cn5)c4c3)cn2)CC1` the TC50 was 2.9 µM (C2C12 mouse myoblasts; cytotoxicity).
With `Cc1cc(NC(=O)Nc2ccc3c(c2)OC(F)(F)O3)cc(C(F)(F)F)n1` the IC50 was 17 µM (THP-1, undifferentiated; cytotoxicity).
The CC50 of `CCOCC(=O)N1CCC[C@H](C(=O)NCc2nc(-c3ccc(C#N)cc3)cs2)C1` is reported as > 50 µM (Jurkat; CellTiter-Glo; 72 h).
With `Nc1ncnc2c1ncn2C1CCCC1` the viability was > 80% (NCI-H460; up to 100 µM, 8 days; reference: vehicle).
`Cc1cc(C(=O)NC(C)(C)COc2cccc3c2C(N)=NS(=O)(=O)N3)cc(C)n1` has a cytotoxicity of 10% (human peripheral blood lymphocytes; CBPI, preliminary test; 2000 µg/mL, 4 h, with: rat liver S9; reference: vehicle control).
`O=C(O)c1ccc(NCc2ccccc2)cc1` gave an IC50 of > 100 µM (HGF; cell viability, resazurin; 72 h, 10% FBS).
`COc1ccc(Nc2cnnc3cc(-c4ccc(S(=O)(=O)N5CCN(C)CC5)cc4)ccc23)nc1` has a TC50 of > 10 µM (C2C12 mouse myoblasts; cytotoxicity).
`CC(C)C[C@H](NC(=O)OCc1ccccc1)C(=O)N[C@@H](Cc1ccccc1)C(=O)NN(CC(C)C)C(=O)C=O` has a CC50 of > 100 µM (primary NK cells, healthy donors; cell viability, MTS; serum-free medium; 48 h).
For `CC1=CC[C@H]2[C@@H]([C@@H]1CC[C@H]1[C@]3(C)CC[C@H](O)C(C)(C)O[C@H]3CC[C@]1(C)O)C(C)(C)CC[C@]2(C)O`, the IC50 was > 50 µM (KB-C2 (P-gp overexpressing); cell viability, MTT; DMEM with 10% bovine serum; 72 h).
For `O=C(O)c1ccc(NCc2ccc(Cl)cc2)cc1`, the IC50 was > 100 µM (HGF; cell viability, resazurin; 72 h, 10% FBS).
`N[C@@H](CCO)C(=O)O`: “host cell number” 0.952 ± 0.074 (HCT-8; Hoechst nuclei count; 1 mM, 24 h; reference: PBS).
Under cellular uptake, `N[C@@H](CCCCNC(=O)CCCC[C@@H]1SC[C@@H]2NC(=O)N[C@@H]21)C(=O)O` is recorded as “not detected” (MDBK; streptavidin staining; 10 µM, 1 h).
Under “maximum tolerated dose”, `COc1ccc(Cl)cc1C(=O)NCCc1ccc(S(=O)(=O)NO)cc1` is recorded as 3.11 µg/mL (THP-1 ASC-GFP monocytes; MTT; 24 h).
The viability fraction of `COc1cc2ncnc(Nc3ccc(Oc4ccccc4)cc3C)c2cc1OC.O=C(O)C(F)(F)F` is reported as 0.978 and 0.913 and 0.972 and 0.925 and 0.992 and 0.996 and 1.01 and 0.988 (SK-MEL-2 (NRAS Q61R); resazurin; concentration not given, 72 h, with: trametinib 0 nM).
`CN1CCC[C@H]1C(=O)O` — result for “host cell number”: 0.953 ± 0.083 (HCT-8; Hoechst nuclei count; 1 mM, 24 h; reference: PBS).
Under “free drug concentration”, `C/C(O)=C(\C#N)C(=O)Nc1ccc(C(F)(F)F)cc1` is recorded as 780 nM (Jurkat; culture medium; 3 µM, 48 h).
`Cn1nc2c(=O)n(C3CC3)cnc2c1[C@](O)(c1cnc(C(F)(F)F)c(Cl)c1)C(F)(F)F` has a CC50 of > 50 µM (Jurkat; CellTiter-Glo).
For `COC(=O)[C@@H](N)Cc1ccc(O)cc1`, “host cell number” read 1.01 ± 0.043 (HCT-8; Hoechst nuclei count; 1 mM, 24 h; reference: PBS).
Under viability, `O=C(c1ccc2[nH]ccc2c1)N1CCN(S(=O)(=O)c2ccc3[nH]c(=O)oc3c2)CC1` is recorded as “not toxic” (HL-60; resazurin; concentration not given, 96 h).
The CC50 of `CC[C@@](N)(c1cnc(C(F)(F)F)c(Cl)c1)c1c2ncn(C3CC3)c(=O)c2nn1C` is reported as > 50 µM (Jurkat; CellTiter-Glo).
`COc1ccccc1CNc1ccc(C(=O)O)cc1` gave an IC50 of > 100 µM (HGF; cell viability, resazurin; 72 h, 10% FBS).
For `OC[C@H]1O[C@@H](c2ccc(Cl)c(Cc3ccc(O[C@@H]4CCOC4)cc3)c2)[C@H](O)[C@@H](O)[C@@H]1O`, the viability was 58.9 ± 4.9% (H9c2; CCK-8; 0.1 µM, with: glucose deprivation; reference: control).
The viability of `Nc1cccc2c1C(=O)N([C@@H]1CCCNC1)C2=O` is reported as 100 ± 2% (RAW264.7; 1 µM, with: LPS 10 ng/mL).
The biliary clearance of `Cc1cc(C)c(NC(=O)CN(CC(=O)[O-])CC(=O)[O-])c(C)c1Br.Cc1cc(C)c(NC(=O)CN(CC(=O)[O-])CC(=O)[O-])c(C)c1Br.[99Tc+4]` is reported as 5.8 ± 2.4 mL/min/kg (human sandwich-cultured hepatocytes).
With `COCC(=O)N1CCC[C@@H](C(=O)NCc2nc(-c3ccccc3)cs2)C1` the CC50 was > 50 µM (Jurkat; CellTiter-Glo; 72 h).
The IC50 of `O=C(O)c1ccc(NCc2cccc(C(F)(F)F)c2)cc1` is reported as > 100 µM (HGF; cell viability, resazurin; 72 h, 10% FBS).
For `Cc1cc(Nc2ccc(S(F)(F)(F)(F)F)cc2)n2nc(C(C)(F)F)nc2n1`, “free drug concentration” read 2400 nM (Jurkat; culture medium; 20 µM, 48 h).
`Cc1ncc(CO)c(CN)c1O.Cl.Cl` — result for “host cell number”: 1.01 ± 0.03 (HCT-8; Hoechst nuclei count; 1 mM, 24 h; reference: PBS).
`O=C(O)c1ccc(NCc2cccc(O)c2)cc1` has an IC50 of > 100 µM (HGF; cell viability, resazurin; 72 h, 10% FBS).
For `O=c1c(O)c(-c2ccc(O)c(O)c2)oc2cc(O)cc(O)c12`, cytotoxicity read “not toxic” (MDBK; MTT; 256 µg/mL).
The CC50 of `Cn1nc2c(=O)n(C3CC3)ncc2c1[C@](O)(c1cnc(C(F)(F)F)c(Cl)c1)C(F)(F)F` is reported as 43 ± 4.2 µM (Jurkat; CellTiter-Glo).
With `CCn1c(=O)/c(=C2\Sc3cc(Cl)ccc3N2C)s/c1=C\c1scc[n+]1Cc1ccccc1` the EC50 was 73.8 µM (MYBPC3 iPSC-cardiomyocytes; cytotoxicity).
`CC(O)CN` (stereo not shown) — result for “host cell number”: 0.968 ± 0.019 (HCT-8; Hoechst nuclei count; 1 mM, 24 h; reference: PBS).
`C[C@H]1O[C@@H](O[C@H]2[C@@H](O)C[C@H](O[C@H]3[C@@H](O)C[C@H](O[C@H]4CC[C@@]5(C)[C@H](CC[C@@H]6[C@@H]5C[C@@H](O)[C@]5(C)[C@@H](C7=CC(=O)OC7)CC[C@]65O)C4)O[C@@H]3C)O[C@@H]2C)C[C@H](O)[C@@H]1O` has a Papp B-A of 4.5 ×10⁻⁶ cm/s (MDCK-II wild type).
For `CN(C)c1ccc(CNc2ccc(C(=O)O)cc2)cc1`, the IC50 was > 100 µM (HGF; cell viability, resazurin; 72 h, 10% FBS).
`CO[C@@]12[C@H](COC(N)=O)C3=C(C(=O)C(C)=C(N)C3=O)N1C[C@@H]1N[C@@H]12` gave a CC50 of 2.71 ± 0.09 µM (RAW264.7; resazurin; DMEM with 10% FBS).
With `C[n+]1cc(NC(=O)c2ccc3ccc4ccc(C(=O)Nc5cc6ccccc6[n+](C)c5)nc4c3n2)cc2ccccc21` the CC50 was 52 ± 10 µM (MA104; cytotoxicity, resazurin; 5 days).
`Cc1ccc(CNC(=O)Cn2cc(CSc3nc4ccccc4[nH]3)nn2)cc1` gave a viability of 9.86% (HEK293; MTT; 250 ppm).
The viability of `CN1CCC[C@@H](N2C(=O)c3cccc(N)c3C2=O)C1` is reported as 100 ± 1% (RAW264.7; 10 µM, with: LPS 10 ng/mL).
`COc1cccc(CNc2ccc(C(=O)O)cc2)c1` has an IC50 of > 100 µM (HGF; cell viability, resazurin; 72 h, 10% FBS).
`COc1ccc(NC(=S)N/N=C/c2cccc3cc4ccccc4nc23)cc1` has a viable cells of 82.3 ± 2.1% (HeLa; annexin V/PI; IC25, 48 h, with: NAC).
For `COCC(=O)N1CCC[C@H](C(=O)NCc2nc(-c3ccc(OC)cc3)cs2)C1`, the CC50 was > 50 µM (Jurkat; CellTiter-Glo; 72 h).
The IC50 of `COc1cc(CNc2ccc(C(=O)O)cc2)cc(OC)c1O` is reported as > 100 µM (HGF; cell viability, resazurin; 72 h, 10% FBS).
For `Cc1cc(C)c(CNC(=O)c2cc(Cl)c3c(c2C)O[C@@](C)([C@H]2CC[C@H](N(C)C)CC2)O3)c(=O)[nH]1`, the efflux ratio was 51.3 (Caco-2; 10 µM).

Repeated from above:
The viability fraction of `COc1cc2ncnc(Nc3ccc(Oc4ccccc4)cc3C)c2cc1OC.O=C(O)C(F)(F)F` is reported as 0.978 and 0.913 and 0.972 and 0.925 and 0.992 and 0.996 and 1.01 and 0.988 (SK-MEL-2 (NRAS Q61R); resazurin; concentration not given, 72 h, with: trametinib 0 nM).
`CN1CCC[C@H]1C(=O)O` — result for “host cell number”: 0.953 ± 0.083 (HCT-8; Hoechst nuclei count; 1 mM, 24 h; reference: PBS).
Under “free drug concentration”, `C/C(O)=C(\C#N)C(=O)Nc1ccc(C(F)(F)F)cc1` is recorded as 780 nM (Jurkat; culture medium; 3 µM, 48 h).
`Cn1nc2c(=O)n(C3CC3)cnc2c1[C@](O)(c1cnc(C(F)(F)F)c(Cl)c1)C(F)(F)F` has a CC50 of > 50 µM (Jurkat; CellTiter-Glo).
For `COC(=O)[C@@H](N)Cc1ccc(O)cc1`, “host cell number” read 1.01 ± 0.043 (HCT-8; Hoechst nuclei count; 1 mM, 24 h; reference: PBS).
Under viability, `O=C(c1ccc2[nH]ccc2c1)N1CCN(S(=O)(=O)c2ccc3[nH]c(=O)oc3c2)CC1` is recorded as “not toxic” (HL-60; resazurin; concentration not given, 96 h).
